Experimental data gathered from unrelated publications.
Parts stem from different laboratories: compare values within a part only.
Sequence of UniProt P78368 (whole entry, looked up): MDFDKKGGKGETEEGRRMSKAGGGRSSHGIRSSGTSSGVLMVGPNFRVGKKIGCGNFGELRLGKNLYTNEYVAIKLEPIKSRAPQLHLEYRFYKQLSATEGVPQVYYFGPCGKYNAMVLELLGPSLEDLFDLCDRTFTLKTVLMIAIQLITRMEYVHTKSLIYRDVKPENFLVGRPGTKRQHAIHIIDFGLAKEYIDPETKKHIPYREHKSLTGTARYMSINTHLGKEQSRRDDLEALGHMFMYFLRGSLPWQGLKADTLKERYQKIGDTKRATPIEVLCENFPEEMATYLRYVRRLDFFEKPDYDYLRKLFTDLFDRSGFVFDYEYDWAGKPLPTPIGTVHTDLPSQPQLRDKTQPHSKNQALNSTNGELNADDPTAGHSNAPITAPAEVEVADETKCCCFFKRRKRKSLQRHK
Sequence of UniProt O14804 (whole entry, looked up): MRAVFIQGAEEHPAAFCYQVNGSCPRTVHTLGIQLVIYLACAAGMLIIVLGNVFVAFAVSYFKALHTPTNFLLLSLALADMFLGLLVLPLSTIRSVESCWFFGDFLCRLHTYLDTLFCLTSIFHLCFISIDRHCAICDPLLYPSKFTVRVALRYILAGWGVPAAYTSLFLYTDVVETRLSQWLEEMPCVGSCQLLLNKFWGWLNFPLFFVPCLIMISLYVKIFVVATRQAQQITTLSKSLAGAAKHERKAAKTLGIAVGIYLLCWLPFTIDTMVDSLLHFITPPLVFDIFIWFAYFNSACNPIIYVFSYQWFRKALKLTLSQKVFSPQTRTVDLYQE
Sequence of UniProt P57058 (whole entry, looked up): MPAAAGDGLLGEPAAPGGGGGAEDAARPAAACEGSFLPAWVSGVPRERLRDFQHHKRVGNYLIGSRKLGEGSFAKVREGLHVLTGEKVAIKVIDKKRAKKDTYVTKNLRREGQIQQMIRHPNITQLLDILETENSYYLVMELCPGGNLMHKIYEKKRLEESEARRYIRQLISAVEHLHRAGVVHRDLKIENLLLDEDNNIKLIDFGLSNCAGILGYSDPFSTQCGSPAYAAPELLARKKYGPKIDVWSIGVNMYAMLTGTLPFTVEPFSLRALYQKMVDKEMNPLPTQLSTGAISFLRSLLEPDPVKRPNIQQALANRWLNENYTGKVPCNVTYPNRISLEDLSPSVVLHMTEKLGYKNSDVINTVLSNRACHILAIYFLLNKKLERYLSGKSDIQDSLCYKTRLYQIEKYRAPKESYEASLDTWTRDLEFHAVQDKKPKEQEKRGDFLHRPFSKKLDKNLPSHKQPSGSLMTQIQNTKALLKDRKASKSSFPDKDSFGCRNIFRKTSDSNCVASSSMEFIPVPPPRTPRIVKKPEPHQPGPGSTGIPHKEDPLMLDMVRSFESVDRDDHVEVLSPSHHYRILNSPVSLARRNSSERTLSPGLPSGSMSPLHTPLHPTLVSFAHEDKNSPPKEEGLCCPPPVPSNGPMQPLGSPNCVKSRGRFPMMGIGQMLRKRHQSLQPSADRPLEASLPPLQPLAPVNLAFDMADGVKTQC
Sequence of UniProt P10398 (whole entry, looked up): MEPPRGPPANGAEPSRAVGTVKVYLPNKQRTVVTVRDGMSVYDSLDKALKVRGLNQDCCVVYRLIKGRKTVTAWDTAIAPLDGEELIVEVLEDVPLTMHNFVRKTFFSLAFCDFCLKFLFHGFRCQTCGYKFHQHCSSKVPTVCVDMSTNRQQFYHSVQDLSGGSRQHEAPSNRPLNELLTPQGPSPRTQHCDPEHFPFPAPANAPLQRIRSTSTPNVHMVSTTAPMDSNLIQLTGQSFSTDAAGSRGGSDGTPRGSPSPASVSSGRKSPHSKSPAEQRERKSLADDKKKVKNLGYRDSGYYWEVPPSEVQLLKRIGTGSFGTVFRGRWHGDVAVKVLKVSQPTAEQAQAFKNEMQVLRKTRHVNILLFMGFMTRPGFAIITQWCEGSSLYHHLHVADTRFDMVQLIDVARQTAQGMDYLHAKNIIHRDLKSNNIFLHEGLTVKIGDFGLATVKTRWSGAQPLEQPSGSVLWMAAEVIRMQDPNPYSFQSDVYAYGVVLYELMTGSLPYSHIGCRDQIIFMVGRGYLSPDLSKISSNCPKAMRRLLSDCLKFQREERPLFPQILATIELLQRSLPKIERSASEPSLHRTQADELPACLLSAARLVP
Sequence of UniProt Q04912 (whole entry, looked up): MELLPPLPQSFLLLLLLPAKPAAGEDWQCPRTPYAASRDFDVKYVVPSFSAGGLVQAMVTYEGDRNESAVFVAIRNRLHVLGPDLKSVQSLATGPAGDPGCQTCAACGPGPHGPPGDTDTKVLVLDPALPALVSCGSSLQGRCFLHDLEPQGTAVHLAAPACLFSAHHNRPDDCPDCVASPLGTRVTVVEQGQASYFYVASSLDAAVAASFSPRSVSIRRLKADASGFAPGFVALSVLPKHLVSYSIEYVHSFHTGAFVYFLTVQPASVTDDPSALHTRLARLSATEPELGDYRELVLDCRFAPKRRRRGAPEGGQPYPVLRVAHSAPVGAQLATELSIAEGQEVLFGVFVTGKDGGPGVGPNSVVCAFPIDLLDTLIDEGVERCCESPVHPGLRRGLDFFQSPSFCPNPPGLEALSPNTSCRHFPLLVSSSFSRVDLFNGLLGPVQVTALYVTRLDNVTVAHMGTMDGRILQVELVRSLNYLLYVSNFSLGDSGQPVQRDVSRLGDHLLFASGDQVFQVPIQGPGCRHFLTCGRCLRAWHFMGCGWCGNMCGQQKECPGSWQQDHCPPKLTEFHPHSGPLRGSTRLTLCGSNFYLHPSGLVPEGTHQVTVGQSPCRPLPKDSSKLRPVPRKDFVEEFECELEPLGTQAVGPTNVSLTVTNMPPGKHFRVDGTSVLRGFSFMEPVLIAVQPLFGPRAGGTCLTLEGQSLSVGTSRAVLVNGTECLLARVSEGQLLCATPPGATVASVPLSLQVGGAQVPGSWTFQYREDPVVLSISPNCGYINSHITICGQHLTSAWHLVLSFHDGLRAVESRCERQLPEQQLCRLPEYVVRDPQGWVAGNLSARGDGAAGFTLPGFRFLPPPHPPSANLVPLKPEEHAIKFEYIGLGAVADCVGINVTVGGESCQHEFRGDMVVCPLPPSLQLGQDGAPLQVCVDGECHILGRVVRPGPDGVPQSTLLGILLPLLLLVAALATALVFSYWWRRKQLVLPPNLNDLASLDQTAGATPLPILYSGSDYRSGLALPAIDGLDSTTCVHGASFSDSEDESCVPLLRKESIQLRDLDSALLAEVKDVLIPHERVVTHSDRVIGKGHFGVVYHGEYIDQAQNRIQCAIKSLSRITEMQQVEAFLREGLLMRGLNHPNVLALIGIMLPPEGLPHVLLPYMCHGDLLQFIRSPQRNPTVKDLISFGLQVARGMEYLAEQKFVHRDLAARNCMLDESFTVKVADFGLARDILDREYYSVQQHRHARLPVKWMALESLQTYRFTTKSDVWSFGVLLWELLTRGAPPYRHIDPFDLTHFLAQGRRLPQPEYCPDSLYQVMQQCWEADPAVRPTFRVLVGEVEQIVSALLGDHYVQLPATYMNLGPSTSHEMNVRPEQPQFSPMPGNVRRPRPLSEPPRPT
Sequence of UniProt Q9NQU5 (whole entry, looked up): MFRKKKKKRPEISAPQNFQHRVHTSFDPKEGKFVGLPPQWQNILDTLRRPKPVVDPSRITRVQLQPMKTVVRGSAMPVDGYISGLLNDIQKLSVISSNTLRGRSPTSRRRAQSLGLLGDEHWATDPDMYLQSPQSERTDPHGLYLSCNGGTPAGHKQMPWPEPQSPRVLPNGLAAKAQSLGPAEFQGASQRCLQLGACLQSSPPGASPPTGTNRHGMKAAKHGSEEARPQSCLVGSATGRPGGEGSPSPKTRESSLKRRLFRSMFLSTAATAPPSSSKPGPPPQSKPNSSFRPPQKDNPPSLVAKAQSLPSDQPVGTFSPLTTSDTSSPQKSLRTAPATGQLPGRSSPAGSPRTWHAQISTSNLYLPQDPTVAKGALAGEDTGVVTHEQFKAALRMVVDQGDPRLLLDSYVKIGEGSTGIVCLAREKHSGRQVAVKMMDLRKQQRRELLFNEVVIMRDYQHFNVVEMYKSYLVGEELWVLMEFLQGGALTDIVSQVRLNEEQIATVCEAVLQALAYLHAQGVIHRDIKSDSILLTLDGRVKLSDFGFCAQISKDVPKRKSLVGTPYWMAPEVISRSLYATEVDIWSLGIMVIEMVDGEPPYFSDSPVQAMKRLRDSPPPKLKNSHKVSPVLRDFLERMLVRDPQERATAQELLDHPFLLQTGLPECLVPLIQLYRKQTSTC
Sequence of UniProt Q8WTQ7 (whole entry, looked up): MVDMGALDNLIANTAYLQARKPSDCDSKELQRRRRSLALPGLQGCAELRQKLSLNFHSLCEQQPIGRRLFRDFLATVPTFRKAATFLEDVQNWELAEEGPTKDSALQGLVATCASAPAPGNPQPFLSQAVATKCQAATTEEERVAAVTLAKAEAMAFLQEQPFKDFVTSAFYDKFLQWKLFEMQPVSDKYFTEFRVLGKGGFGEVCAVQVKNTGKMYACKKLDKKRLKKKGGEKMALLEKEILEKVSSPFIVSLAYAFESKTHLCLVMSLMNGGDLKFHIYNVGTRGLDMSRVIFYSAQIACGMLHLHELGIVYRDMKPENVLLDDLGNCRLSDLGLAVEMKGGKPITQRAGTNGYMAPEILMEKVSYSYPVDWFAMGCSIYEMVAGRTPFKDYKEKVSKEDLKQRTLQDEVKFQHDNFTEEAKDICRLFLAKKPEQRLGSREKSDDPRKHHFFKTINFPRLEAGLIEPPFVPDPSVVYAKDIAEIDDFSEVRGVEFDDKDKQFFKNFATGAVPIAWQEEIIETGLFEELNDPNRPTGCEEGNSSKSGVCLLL
Sequence of UniProt Q9HC98 (whole entry, looked up): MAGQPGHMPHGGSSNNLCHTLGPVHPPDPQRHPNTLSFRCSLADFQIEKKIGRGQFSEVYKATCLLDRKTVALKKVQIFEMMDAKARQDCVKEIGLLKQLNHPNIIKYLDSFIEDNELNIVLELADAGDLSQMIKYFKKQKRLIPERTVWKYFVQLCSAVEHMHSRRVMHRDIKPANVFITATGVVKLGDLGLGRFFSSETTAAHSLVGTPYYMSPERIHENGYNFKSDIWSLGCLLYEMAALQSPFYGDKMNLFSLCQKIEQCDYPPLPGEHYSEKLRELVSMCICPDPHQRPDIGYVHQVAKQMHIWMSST

Block 1 — Structure (SMILES): CCN(c1nc(N)c(C(=O)N=C(N)N)nc1Cl)C(C)C; effect on: β-arrestin recruitment; action: agonist; method: PRESTO-Tango; concentration: 10 µM; baseline: untreated; quantity: fold over basal
TAAR5 (Homo sapiens, UniProt O14804): 1.25 fold
TBXA2R (Homo sapiens, UniProt P21731): 1.47 fold
HTR1E (Homo sapiens, UniProt P28566): 0.8

Block 2 — method: PRP chromatography; setting: linear fit, 1 mL; quantity: logD 1,9-decadiene/water
CC(C)C[C@@H]1NC(=O)[C@H](CC(C)C)NC(=O)[C@H](CC(C)C)NC(=O)[C@@H](C)NC(=O)[C@H](C)NC(=O)[C@@H](CC(C)C)NC(=O)[C@H](C)NC1=O: -1.84 log units
CC(C)C[C@@H]1NC(=O)[C@@H](C)NC(=O)[C@@H](CC(C)C)NC(=O)[C@@H](C(C)C)NC(=O)[C@H](C)NC(=O)[C@H](CC(C)C)NC(=O)[C@@H](CC(C)C)NC1=O: -0.544 log units
CC(C)C[C@@H]1NC(=O)[C@H](C(C)C)NC(=O)[C@H](CCC(=O)N2CCCC2)NC(=O)[C@H](CC(C)C)NC(=O)[C@@H](CCC(=O)N2CCCC2)NC(=O)[C@H](CC(C)C)NC(=O)[C@@H](CC(C)C)NC1=O: -0.936 log units
CC(C)C[C@@H]1NC(=O)[C@H](C(C)C)NC(=O)[C@H](CC(C)C)NC(=O)[C@@H](CC(C)C)NC(=O)[C@H](CC(C)C)NC(=O)[C@@H](C)NC(=O)[C@@H](CC(C)C)NC1=O: 0.717 log units
CC(C)C[C@@H]1NC(=O)[C@H](C)NC(=O)[C@@H](CC(C)C)NC(=O)[C@@H](CC(C)C)NC(=O)[C@@H](CCC(=O)N2CCCC2)NC(=O)[C@H](CC(C)C)NC(=O)[C@@H](CC(C)C)NC1=O: 0.0568 log units
CC(C)C[C@@H]1NC(=O)[C@H](C(C)C)NC(=O)[C@H](CCC(=O)N2CCCC2)NC(=O)[C@H](CCC(=O)N2CCCC2)NC(=O)[C@@H](CCC(=O)N2CCCC2)NC(=O)[C@H](CC(C)C)NC(=O)[C@@H](CC(C)C)NC1=O: -4.42 log units
CC(C)C[C@@H]1NC(=O)[C@H](C(C)C)NC(=O)[C@@H](CC(C)C)NC(=O)[C@@H](CC(C)C)NC(=O)[C@H](C(C)C)NC(=O)[C@H](CC(C)C)NC(=O)[C@@H](CC(C)C)NC1=O: -3.95 log units

Block 3 — effect on: cell-free assay; method: competition with immobilised ligand; concentration: 1 µM; quantity: remaining binding
SMILES: CCC(=O)N[C@@H]1CC[C@H](C(=O)N(C)c2ccc(-c3nc4ccccc4o3)cc2)C1
PI4KB (Homo sapiens, UniProt Q9UBF8): 100%
PAK6 (Homo sapiens, UniProt Q9NQU5): 100%
CSNK1G2 (Homo sapiens, UniProt P78368): 100%
HUNK (Homo sapiens, UniProt P57058): 100%

Block 4 — effect on: enzyme activity; action: inhibitor; concentration: 0.5 µM; baseline: control; quantity: remaining activity
Structure (SMILES): CSc1nc(-c2ccnc(N[C@@H](C)c3ccccc3)c2)c(-c2ccc(F)cc2)[nH]1 (racemic)
GRK7 (Homo sapiens, UniProt Q8WTQ7): 100%
ACVR1B (Homo sapiens, UniProt P36896): 95.9%
ULK2 (Homo sapiens, UniProt Q8IYT8): 94.1%
GSK3B (Homo sapiens, UniProt P49841): 97.9%
MST1R (Homo sapiens, UniProt Q04912): 81.3%
EPHA3 (Homo sapiens, UniProt P29320): 82.5%
MAPK3 (Homo sapiens, UniProt P27361): 68%
TAOK2 (Homo sapiens, UniProt Q9UL54): 92.7%
TEK (Homo sapiens, UniProt Q02763): 90.5%
CSNK1G3 (Homo sapiens, UniProt Q9Y6M4): 58.4%
NEK6 (Homo sapiens, UniProt Q9HC98): 106%
CSNK1G2 (Homo sapiens, UniProt P78368): 75.6%
MAP3K5 (Homo sapiens, UniProt Q99683): 106%
ARAF (Homo sapiens, UniProt P10398): 99%

Repeated from above (block 2):
CC(C)C[C@@H]1NC(=O)[C@H](C(C)C)NC(=O)[C@H](CC(C)C)NC(=O)[C@@H](CC(C)C)NC(=O)[C@H](CC(C)C)NC(=O)[C@@H](C)NC(=O)[C@@H](CC(C)C)NC1=O: 0.717 log units
CC(C)C[C@@H]1NC(=O)[C@H](C)NC(=O)[C@@H](CC(C)C)NC(=O)[C@@H](CC(C)C)NC(=O)[C@@H](CCC(=O)N2CCCC2)NC(=O)[C@H](CC(C)C)NC(=O)[C@@H](CC(C)C)NC1=O: 0.0568 log units
CC(C)C[C@@H]1NC(=O)[C@H](C(C)C)NC(=O)[C@H](CCC(=O)N2CCCC2)NC(=O)[C@H](CCC(=O)N2CCCC2)NC(=O)[C@@H](CCC(=O)N2CCCC2)NC(=O)[C@H](CC(C)C)NC(=O)[C@@H](CC(C)C)NC1=O: -4.42 log units
